{"data": "Measurements gathered from unrelated publications", "note": "Each numbered part is a random draw from the data of one study; scales do not carry over between parts."}
{"data": "Series 1", "target": "Phosphate system positive regulatory protein PHO4, full length, GST-tagged (PHO4, Saccharomyces cerevisiae, UniProt P07270, residues 1-312)", "method": "competition protein-binding microarray", "molecule type": "double-stranded DNA, one strand shown", "matrix": "in vitro", "tested at": "2 µM", "setting": "whole 60-bp probe, lowest competitor level", "together with": "Cbf1 competitor, 0.05 µM", "direction": "higher = stronger binding", "all sequences stand within": "… GTCTTGATTCGCTTGACGCTGCTG", "Construct (chain)": "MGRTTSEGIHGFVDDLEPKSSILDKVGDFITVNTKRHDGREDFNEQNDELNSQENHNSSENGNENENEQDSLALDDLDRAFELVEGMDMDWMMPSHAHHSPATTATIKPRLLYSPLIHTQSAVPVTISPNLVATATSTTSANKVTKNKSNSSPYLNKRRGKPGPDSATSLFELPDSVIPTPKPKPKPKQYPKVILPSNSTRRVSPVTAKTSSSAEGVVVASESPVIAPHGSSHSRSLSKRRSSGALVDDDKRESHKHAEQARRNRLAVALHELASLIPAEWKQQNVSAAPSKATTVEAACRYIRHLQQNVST"}
{"Oligonucleotide": "CTTTCCCGATCTTAACACGTGTTTTTAGCACATTTG", "fluorescence intensity [a.u.]": 17300}
{"Oligonucleotide": "TGTTTGAGTGGCCAAGACGTGTTGAACTTCAGAAGT", "fluorescence intensity [a.u.]": 4730}
{"Oligonucleotide": "CGTTGGTGGTGCAAAGTCGTGCTTTAACCCATCGGG", "fluorescence intensity [a.u.]": 8100}
{"Oligonucleotide": "TGAGGAGAACGATTGTTCGTGCCAGTGGCAATGGAA", "fluorescence intensity [a.u.]": 4790}
{"Oligonucleotide": "GATTATTGGCCAAGTACCGTGACGGTGGTAAGATTG", "fluorescence intensity [a.u.]": 4490}
{"Oligonucleotide": "CTTCTGTAAATTTGACTAGTGGGTGGACGCGCCCCG", "fluorescence intensity [a.u.]": 4080}
{"Oligonucleotide": "AAATTACTAAGTTTTCACGTGGGGTACCCCGTATGA", "fluorescence intensity [a.u.]": 14200}
{"Oligonucleotide": "CTTCTTGTAATGTTGCGCGTGATGGGAATCGATGTC", "fluorescence intensity [a.u.]": 9430}
{"Oligonucleotide": "CATACCCAACCTTTTCACGTGTTATAAGATATTTGT", "fluorescence intensity [a.u.]": 17500}
{"data": "Series 2", "target": "Protein C-ets-1 (ETS1, Homo sapiens, UniProt P14921, residues 1-441, Y397A, full length assumed)", "method": "protein-binding microarray", "molecule type": "double-stranded DNA, one strand shown", "matrix": "in vitro", "tested at": "not given", "setting": "k-mer, scored over probes, only values ≥0.25", "direction": "higher = stronger binding", "Target sequence (chain)": "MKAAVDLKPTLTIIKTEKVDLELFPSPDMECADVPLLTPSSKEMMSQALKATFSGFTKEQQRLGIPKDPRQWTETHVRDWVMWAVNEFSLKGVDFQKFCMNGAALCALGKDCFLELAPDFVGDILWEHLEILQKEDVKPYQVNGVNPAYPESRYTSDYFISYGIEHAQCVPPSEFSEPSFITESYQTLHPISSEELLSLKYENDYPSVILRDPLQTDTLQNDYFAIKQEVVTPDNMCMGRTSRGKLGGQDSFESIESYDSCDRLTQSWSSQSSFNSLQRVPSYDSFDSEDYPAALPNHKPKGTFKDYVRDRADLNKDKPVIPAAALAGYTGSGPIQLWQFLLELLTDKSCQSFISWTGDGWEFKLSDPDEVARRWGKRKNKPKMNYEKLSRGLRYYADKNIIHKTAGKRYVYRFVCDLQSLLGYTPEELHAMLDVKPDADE"}
{"Oligonucleotide": "ACTACAAT", "E-score": 0.269}
{"Oligonucleotide": "CGACAATA", "E-score": 0.326}
{"Oligonucleotide": "CAACGACA", "E-score": 0.263}
{"Oligonucleotide": "CGATTGCG", "E-score": 0.267}
{"Oligonucleotide": "CGGTAACA", "E-score": 0.26}
{"Oligonucleotide": "TACAACAA", "E-score": 0.272}
{"data": "Series 3", "target": "Histone acetyltransferase KAT6A, winged helix 2, GST fusion (KAT6A, Homo sapiens, UniProt Q92794, residues 85-181)", "method": "protein binding microarray", "molecule type": "double-stranded DNA, one strand shown", "matrix": "in vitro", "tested at": "not given", "setting": "8-mer, flanks averaged, mean of 2 arrays, mostly near background", "baseline": "not given", "direction": "higher = stronger binding", "Residues (chain)": "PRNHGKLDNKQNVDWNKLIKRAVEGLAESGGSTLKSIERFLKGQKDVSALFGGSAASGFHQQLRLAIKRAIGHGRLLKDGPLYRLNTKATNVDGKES"}
{"Oligonucleotide": "ATGACAAC", "E-score": -0.117}
{"Oligonucleotide": "ACCCGGTG", "E-score": -0.0614}
{"Oligonucleotide": "CCATTTTA", "E-score": -0.017}
{"Oligonucleotide": "ACAAGGTG", "E-score": 0.0412}
{"Oligonucleotide": "AGATTATA", "E-score": -0.0643}
{"Oligonucleotide": "AGACGACA", "E-score": -0.0877}
{"Oligonucleotide": "ATCATATA", "E-score": 0.151}
{"Oligonucleotide": "ATGAGTTG", "E-score": -0.077}
{"Oligonucleotide": "AATAAGAT", "E-score": 0.0616}
{"Oligonucleotide": "AGGATTGG", "E-score": -0.0642}
{"Oligonucleotide": "CAGCGGGC", "E-score": 0.068}
{"Oligonucleotide": "AGATGCGA", "E-score": -0.102}
{"data": "Single results of other studies"}
{"Molecule": "PhoQ, residues 284 288 289 292 302 303 SLSVQF", "target": "PhoP, residues 12 14 15 18 19 LFHKL (Escherichia coli, UniProt P23836)", "test": "Sort-seq, item: YFP reporter", "test system": "E. coli", "conditions": "PhoQ-PhoP variant library, together with: 10 µM Mg2+", "scale": "baseline: high Mg2+ state, higher = stronger signaling", "quantity": "fold induction", "value": 0.878}
{"note": "Excerpt of the above (series 2):"}
{"Oligonucleotide": "ACTACAAT", "E-score": 0.269}
{"Oligonucleotide": "CGGTAACA", "E-score": 0.26}
